Results of several laboratories.
Every numbered part comes from another study and shows a few of its results, in no order.

Sample 1
Target: Phosphate system positive regulatory protein PHO4, full length, GST-tagged (PHO4, Saccharomyces cerevisiae, UniProt P07270, residues 1-312)
Method: competition protein-binding microarray
Form: double-stranded DNA, one strand shown
Sample: in vitro
Tested at: 2 µM
Setting: whole 60-bp probe, lowest competitor level
Added: Cbf1 competitor, 0.05 µM
Direction: higher = stronger binding
Shared flanks, not repeated: … GTCTTGATTCGCTTGACGCTGCTG
Target sequence (chain): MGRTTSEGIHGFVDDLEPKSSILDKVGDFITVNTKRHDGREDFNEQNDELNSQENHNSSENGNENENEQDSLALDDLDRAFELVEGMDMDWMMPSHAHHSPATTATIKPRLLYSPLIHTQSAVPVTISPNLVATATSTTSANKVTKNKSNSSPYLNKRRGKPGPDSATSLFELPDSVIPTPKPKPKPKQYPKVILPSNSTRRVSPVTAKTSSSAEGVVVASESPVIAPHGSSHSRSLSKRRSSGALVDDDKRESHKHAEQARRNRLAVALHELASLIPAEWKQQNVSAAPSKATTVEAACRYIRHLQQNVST
Sequence | fluorescence intensity
CATACCCAACCTTGCAGAGTGGGTGAAGATATTTGT | 4200 a.u.
CATACCCAACCTTGATTAGTGGGTGAAGATATTTGT | 3760 a.u.
TCCAATGGTTCGAACCATGTGGAAGAAGATGCAGAA | 7590 a.u.
TTTTACAGCTGCAATCAGGTGAATTCGTTTCTTCGA | 3360 a.u.
CTTCTGTAAATTTGTCACGTTACTTGACGCGCCCCG | 8560 a.u.
CGTTCCTGGAACAGACGCGTGGGACATTTAGCGGGG | 9080 a.u.
TCTTGCTGATTCTGCATCGTGGTGAACAGACGGTTT | 10800 a.u.
GTATTTTGTAAACAGCACGTGATGGACAGGGCGCAG | 17500 a.u.

Sample 2
Target: Interferon regulatory factor 5, full length, phosphomimetic (IRF5, Homo sapiens, UniProt Q13568-2, residues 1-514, K96S/S451D/S453D/S456D/S462D)
Method: protein-binding microarray
Form: double-stranded DNA, one strand shown
Sample: in vitro
Tested at: 250 nM
Setting: 60-bp whole probe
Added: salmon DNA 0.4 mg/ml
Baseline: random background probes
Direction: higher = stronger binding
Shared flanks, not repeated: GCCTAGCAC … GTCTTGATTCGCTTGACGCTGCTG
Sequence | log fluorescence
GACGGTTTCGACTTTCGGGAGGTGCTA | 8.07 z-score
GACGGTTTCGACTATCGGGACGTGCTA | 7.13 z-score
TCATGTCTGGGTCTTGGACTGTGCTAG | -0.101 z-score
GACGGTTTCCTACTGCTGAAGTGCTAG | 0.362 z-score
TCATTTCTTTGCTTCACACTGTGCTAG | 1.28 z-score
GACGGTATCGAGTATCGGGACGTGCTA | 3.29 z-score
TCAAACCCCATTCTCAGACTGTGCTAG | -0.183 z-score
GACGGTCTCGGACTTGGGACGTGCTAG | -0.427 z-score

Sample 3
Target: TAR DNA-binding protein 43, full length, His tag (TARDBP, Homo sapiens, UniProt Q13148, residues 1-414)
Method: RNA Bind-n-Seq
Form: RNA
Sample: in vitro
Tested at: 20 nM
Setting: 6-mer, flanks averaged, single round
Added: 150 mM LiCl
Baseline: input library
Direction: higher = stronger binding
Sequence | 6-mer enrichment (R)
UCGACC | 0.829
UAUGGG | 1.29
UAGAUC | 0.863
GCGUGG | 1.35
AACUCC | 1.03

Sample 4
Cell line: HEK-293T/ACE2
Tested at: concentration not given
Time: 16 (unit not given)
Baseline: vehicle
Compound | viability [%]
Nc1nc2ncc(CNc3ccc(C(=O)N[C@@H](CCC(=O)O)C(=O)O)cc3)nc2c(=O)[nH]1 | 86.9
CC1(C)S[C@@H]2[C@H](NC(=O)[C@H](NC(=O)N3CCNC3=O)c3ccccc3)C(=O)N2[C@H]1C(=O)O | 98.8
CO[C@H]1C(=O)[C@]2(C)[C@@H](OC)C[C@H]3OC[C@@]3(OC(C)=O)[C@H]2[C@H](OC(=O)c2ccccc2)[C@]2(O)C[C@H](OC(=O)[C@H](O)[C@@H](NC(=O)OC(C)(C)C)c3ccccc3)C(C)=C1C2(C)C | 57.7
O=[N+]([O-])O[C@H]1CO[C@H]2[C@@H]1OC[C@H]2O[N+](=O)[O-] | 101

Sample 5
Target: Replicase polyprotein 1ab, nsp13 helicase (rep, Severe acute respiratory syndrome coronavirus 2, UniProt P0DTD1)
Action: inhibitor
Tested at: 20 µM
Structure (SMILES) | inhibition [%]
O=C(/C=C/c1c(C(=O)O)[nH]c2cc(Cl)cc(Cl)c12)Nc1ccccc1 | 7.34
CN1CCN(c2ncc(-c3cc(Cl)cc(Cl)c3Cl)c(N)n2)CC1 | 3.5
COc1ccc(NC(=O)c2ccc(-c3ccc(-c4noc(C)n4)cc3C)cc2)cc1N1CCN(C)CC1 | 10.1
OC[C@H]1O[C@@H](n2cnc3c(NC4CCCC4)ncnc32)[C@H](O)[C@@H]1O | 7.78
CCCNC(C)C(=O)Nc1c(C)csc1C(=O)OC (stereo not shown) | -1.48
C=CC(=O)Nc1cccc(Nc2nc(Nc3ccc(NC4CN(CCF)C4)cc3OC)ncc2C(F)(F)F)c1 | 18.1
C[C@H]1CC[C@@]2(OC1)O[C@H]1C[C@H]3[C@@H]4CC[C@@H]5C[C@@H](O)CC[C@]5(C)[C@H]4CC[C@]3(C)[C@H]1[C@@H]2C | -5.72
CC(/C=C1\SC(=S)N(CC(=O)O)C1=O)=C\c1ccccc1 | -7.07
C[C@@H]1Cc2c([nH]c3ccccc23)[C@@H](c2c(F)cc(/C=C/C(=O)O)cc2F)N1CC(C)(C)F | 11.8
CN1CCN(c2ccc3nc(-c4c(N)c5c(F)cccc5[nH]c4=O)[nH]c3c2)CC1 | 31.4
CN1CCC(Nc2ncc3ncnc(Nc4ccc(F)c(Cl)c4)c3n2)CC1 | 8.51
COC(=O)C(N)CS (stereo not shown) | -4.99
O=C(Nc1ccc(-c2ccnc(Nc3ccc(N4CCOCC4)cc3)n2)cc1)C1CCCN1 (stereo not shown) | 17.7
O=C(c1ccc(OCCN2CCCCC2)cc1)c1c(-c2ccc(O)cc2)sc2cc(O)ccc12 | 8.65
CC(=O)[C@]1(O)Cc2c(O)c3c(c(O)c2[C@@H](O[C@H]2C[C@H](N)[C@H](O)[C@H](C)O2)C1)C(=O)c1ccccc1C3=O | 88.8
CC(=O)Nc1ccc(Cc2ccc(NC(C)=O)cc2)cc1 | 3.46
CCN1CCN(c2ccc(Nc3cc(N(C)C(=O)Nc4c(Cl)c(OC)cc(OC)c4Cl)ncn3)cc2)CC1 | 12.6
CCn1c(=O)[nH]c2cc(Cl)c(Cl)cc21 | 5.21
COc1cc(N)c(Cl)cc1C(=O)CCC1CCN(CCNS(C)(=O)=O)CC1 | -1.16
NC(=O)C[S@@+]([O-])C(c1ccccc1)c1ccccc1 | 5.9
CCS(=O)(=O)Nc1ccc2c(c1)/C(=C(/Nc1ccc(CN3CCCCC3)cc1)c1ccccc1)C(=O)N2 | 10.9
O=C(Oc1cc(S(=O)(=O)c2ccccc2)ccc1[N+](=O)[O-])c1ccc(Cl)cc1 | -0.91
N[C@H]1CC[C@H](N[C@@H]2C[C@H]2c2ccccc2)CC1 | 4.32
CC(=O)O[C@]1(C(C)=O)CC[C@H]2[C@@H]3C[C@H](C)C4=CC(=O)CC[C@]4(C)[C@H]3CC[C@@]21C | 1.87
CS(=O)(=O)c1ccc(-c2nnc(/C=C/c3nnc(-c4ccc(C#N)cc4)o3)n2-c2ccccc2Cl)nc1 | -1.14

Mixed results
Effect on: enzyme activity
Action: inhibitor
Molecule | target | tested at | setting | inhibition [%]
CC(C)=CCC/C(C)=C/CC/C(C)=C/CC/C(C)=C/CC1=C(C)C(=O)c2ccccc2C1=O | Replicase polyprotein 1ab, main protease (rep, Severe acute respiratory syndrome coronavirus 2, UniProt P0DTD1) | 20 µM | hit confirmation | 22.7
Thimerosal | Replicase polyprotein 1ab, 3C-like proteinase (rep, Middle East respiratory syndrome-related coronavirus, UniProt K9N7C7) | 10 µM | – | 46

Excerpt of the above (sample 2):
Sequence | log fluorescence
GACGGTTTCCTACTGCTGAAGTGCTAG | 0.362 z-score
TCATTTCTTTGCTTCACACTGTGCTAG | 1.28 z-score
GACGGTATCGAGTATCGGGACGTGCTA | 3.29 z-score
TCAAACCCCATTCTCAGACTGTGCTAG | -0.183 z-score
